Published values gathered from unrelated publications.
“And” joins repeats or separate records; there may be more than shown. ± gives the spread as reported.

Structure (SMILES)	test	system	conditions	how to read	quantity	result
COc1ccc2c(c1)CN[C@@H](C(=O)N[C@H](CN1CC[C@@](C)(c3cccc(O)c3)[C@@H](C)C1)C(C)C)C2		Sprague-Dawley rat, plasma	intraperitoneal, 5 mg/kg		AUCtotal	2170 ng·h/mL
NCCCC[C@@H]1NC(=O)[C@@H](Cc2c[nH]c3ccccc23)NC(=O)[C@H](c2ccccc2)NC(=O)[C@@H]2C[C@@H](OC(=O)NCCN)CN2C(=O)[C@H](Cc2ccccc2)NC(=O)[C@H](Cc2ccc(OCc3ccccc3)cc2)NC1=O		healthy volunteers	subcutaneous, 1950 µg twice daily, day 5, 12.00 h		QTcI change from baseline	3.1 ms
O=C1Nc2cc3[nH]nc(-c4ccncc4)c3cc2CN1Cc1ccccc1	measured: subretinal fluid	patients with advanced solid tumours	intravenous, dose not given, both schedules pooled		patients with TEAE	32%
Cc1noc(C)c1Cn1cc(N2C(=O)CN(Cc3cccc(O)c3)C2=O)cn1		CD-1 mouse, male, bone marrow	1000 mg/kg/day, 24 h		PCE proportion	44.2%
CCc1ccc(CC/C=C/c2ccc3c(c2)C(=O)CC3)cc1		Sprague-Dawley rat, female	oral, 30 mg/kg/day, 14 days		Lymphocyte percentage	82.2%
CN[C@@H](C)C(=O)N[C@H]1CN(S(=O)(=O)c2cccc(S(=O)(=O)N3CC[C@H]4CC[C@@H](C(=O)NC(c5ccccc5)c5ccccc5)N4C(=O)[C@@H](NC(=O)[C@H](C)NC)C3)c2)CC[C@H]2CC[C@@H](C(=O)NC(c3ccccc3)c3ccccc3)N2C1=O		patients with advanced solid tumours	4 mg, phase I monotherapy		treatment-related AST elevation incidence	0%
Clc1ccc(-c2ccccc2)cc1		Sprague-Dawley rats, female, serum	inhalation, 23 µg/rat, 0 h after exposure		calcium	10 ± 2 mg/dL
C[C@@H]1NC(=O)[C@H](CCCCNC(=O)CO/N=C/C(=O)NCCCC[C@@H]2NC(=O)[C@@H](Cc3ccccc3)NC(=O)[C@H](CC(=O)O)NC(=O)CNC(=O)[C@H](CCCNC(=N)N)NC2=O)NC(=O)CNC(=O)[C@@H]2CCCN2C(=O)[C@H](CCCCNC(=O)CO/N=C/C(=O)NCCCC[C@@H]2NC(=O)[C@@H](Cc3ccccc3)NC(=O)[C@H](CC(=O)O)NC(=O)CNC(=O)[C@H](CCCNC(=N)N)NC2=O)NC(=O)[C@H](CCCCNC(=O)[C@H](CCCCN)NC(=O)[C@H](Cc2ccccc2)NC(=O)CNC(=O)CN2CCCNCCNCCCNCC2)NC(=O)[C@H](CCCCNC(=O)CO/N=C/C(=O)NCCCC[C@@H]2NC(=O)[C@@H](Cc3ccccc3)NC(=O)[C@H](CC(=O)O)NC(=O)CNC(=O)[C@H](CCCNC(=N)N)NC2=O)NC(=O)CNC(=O)[C@@H]2CCCN2C(=O)[C@H](CCCCNC(=O)CO/N=C/C(=O)NCCCC[C@@H]2NC(=O)[C@@H](Cc3ccccc3)NC(=O)[C@H](CC(=O)O)NC(=O)CNC(=O)[C@H](CCCNC(=N)N)NC2=O)NC1=O [copper-64 labelled]	PET imaging	mouse, U-87 MG tumour xenograft, liver	intravenous, 24 h		tissue uptake	17 ± 1.85 %ID/g
Cc1cc(C)c(CNC(=O)c2cc(Cl)c3c(c2C)O[C@@](C)([C@H]2CC[C@H](N(C)C)CC2)O3)c(=O)[nH]1		relapsed/refractory NHL patients	dose not given, trial, safety set, treatment-related TEAE grade 5		incidence of neutrophil count decreased	0%
[131I-].[Na+]		hyperthyroidism patients	185 MBq, long-term follow-up		ischemic heart disease incidence	0.4%
CO[C@H]1C[C@@H]2CC[C@@H](C)[C@@](O)(O2)C(=O)C(=O)N2CCCC[C@H]2C(=O)O[C@H]([C@H](C)C[C@@H]2CC[C@@H](OC(=O)NCCOCCOCCOCCOCCOCCOCCOCCOCCC(=O)N3CCc4cc(Cn5nc(-c6ccc7oc(N)nc7c6)c6c(N)ncnc65)ccc4C3)[C@H](OC)C2)C[C@@H](O)[C@H](C)/C=C(\C)[C@@H](O)[C@@H](OC)C(=O)[C@H](C)C[C@H](C)/C=C/C=C/C=C/1C		patients with advanced solid tumours	intravenous, 1.6 mg/3 mg weekly, grade ≥3		Pneumonia AE leading to dose reduction	0%
CN1CC[C@@H](c2c(O)cc(O)c3c(=O)cc(-c4ccc(C(F)(F)F)cc4Cl)oc23)[C@@H]1CO	measured: Neutropenia	AML	oral, 100 mg, intermittent dosing		patients with adverse event	33.3%
CCC[C@@](N)(CO)CCc1ccc(OCCCCCC(C)C)cc1		hound dogs, male	intravenous, 0.25 mg/kg, geometric mean		AUC(0-inf)	0.48 µM·h
CC(C)C(=O)OC[C@H]1O[C@@H](n2ccc(NO)nc2=O)[C@H](O)[C@@H]1O		rat placenta dialysate	5 ng/mL, 6 h, 10 °C, low QC concentration, added: NHC 25 ng/mL		autosampler stability	102 ± 3.15%
O=S(=O)(Nc1ccccc1)c1ccc(NC(=S)Nc2ccccc2)cc1		female mice, heart	oral, 20 mg/kg daily 14 days	reference: body weight	relative organ weight	0.49%
N.N.[Cl][Pt][Cl]		mouse, serum	dose not given		blood urea nitrogen	41.7 mg/dL and 32 mg/dL and 32.4 mg/dL
COc1ccnc(C(=O)N[C@H]2COC(=O)[C@H](Cc3ccccc3)[C@@H](OC(=O)C(C)C)[C@H](C)OC2=O)c1OCOC(=O)C(C)C	developmental toxicity	rat	highest dose tested		NOAEL	1040 mg/kg/day
CC(=O)c1c(C)c2cnc(Nc3ccc(C4CCN(CCS(C)(=O)=O)CC4)cn3)nc2n(C2CCCC2)c1=O		human, dose-escalation trial, plasma	oral, 50 mg twice daily, day 1, single dose		clearance	2580 mL/min
C[C@]1(CO)Cc2ncn(-c3ccc(C#N)c(Cl)c3)c2C(=O)O1		human	10 mg, European food-effect part, fed		any TEAE	8.3%
C[C@@H](NC(=O)N1C(=O)[C@H](Cc2ccnc(N)c2)[C@H]1C(=O)O)C1CCCCC1		healthy adult Chinese volunteers	continuous intravenous infusion, 1.0 mg/kg/h, 5-day infusion, CTCAE 5.0 grading		incidence of injection site erythema swelling	12.5%
COc1cc2c(Oc3ccc4[nH]c(C)cc4c3F)ccnc2cc1OCC1(N)CC1		paediatric recurrent refractory sarcoma	concentration not given, whole group		grade 1 or 2 Appendicitis	0%
O.O.O.O.O.O.[Cl-].[Cl-].[Co+2]		rat male, faeces	oral gavage, 10 mg/kg single, day 1, pooled samples	reference: vehicle control subtracted	cobalt in faeces	41.1 µg/g
CC(C)(O)c1cc(Nc2cc(Oc3cn(C4CC4)nc3C3CCOCC3)ccn2)ccn1	Asthenia	patients with advanced cancer, Japanese cohort	oral, dose not given, grade ≥3		treatment-related adverse events	0%
Cn1ncc(-c2nc(N[C@H]3CC[C@H](N)CC3)ncc2Cl)c1CC1CC1	phase I dose escalation	human patients	dose not given, treatment-related adverse events		related adverse event incidence	83.9%
CC(C)[C@@H]1NC(=O)CNC(=O)[C@H](CC(N)=O)NC(=O)[C@H](CCCNC(=N)N)NC(=O)[C@H](Cc2ccc(O)cc2)NC(=O)[C@H](C(C)C)NC(=O)[C@@H](NC(=O)[C@@H](NC(=O)[C@H](CC(N)=O)NC(=O)[C@H](Cc2c[nH]c3ccccc23)NC(=O)[C@H](C)NC(=O)[C@H](Cc2ccccc2)NC(=O)CN)C(C)C)CSSC[C@@H](C(=O)N[C@@H](Cc2cnc[nH]2)C(=O)N[C@@H](CCCNC(=N)N)C(=O)N[C@@H](CCCNC(=N)N)C(=O)N[C@@H](C)C(=O)N[C@@H](CC(N)=O)C(N)=O)NC(=O)[C@H](C(C)C)NC(=O)[C@H](CCCNC(=N)N)NC1=O	HPLC	mouse liver homogenate	2560 µM, 6.00 h, 50 mg/mL tissue		remaining peptide	2.64% and 3.03% and 4.77%
CCS(=O)(=O)Nc1ccc(Oc2ccc(F)cc2F)c(-c2cn(C)c(=O)c3[nH]ccc23)c1	serious septic shock	human, relapsed/refractory AML	oral, dose not given		treatment-emergent adverse events	0%
C[C@@H]1OC(=O)NN=C1c1ccc(-c2ccc(F)cc2)c(C(F)(F)F)c1	phase I trial, measured: Pneumonitis all grades	human patients	10 mg loading then 0.5 mg daily		patients with adverse event	0%

Some of these lines once more:
Structure (SMILES)	test	system	conditions	how to read	quantity	result
CCc1ccc(CC/C=C/c2ccc3c(c2)C(=O)CC3)cc1		Sprague-Dawley rat, female	oral, 30 mg/kg/day, 14 days		Lymphocyte percentage	82.2%
C[C@@H]1OC(=O)NN=C1c1ccc(-c2ccc(F)cc2)c(C(F)(F)F)c1	phase I trial, measured: Pneumonitis all grades	human patients	10 mg loading then 0.5 mg daily		patients with adverse event	0%
CO[C@H]1C[C@@H]2CC[C@@H](C)[C@@](O)(O2)C(=O)C(=O)N2CCCC[C@H]2C(=O)O[C@H]([C@H](C)C[C@@H]2CC[C@@H](OC(=O)NCCOCCOCCOCCOCCOCCOCCOCCOCCC(=O)N3CCc4cc(Cn5nc(-c6ccc7oc(N)nc7c6)c6c(N)ncnc65)ccc4C3)[C@H](OC)C2)C[C@@H](O)[C@H](C)/C=C(\C)[C@@H](O)[C@@H](OC)C(=O)[C@H](C)C[C@H](C)/C=C/C=C/C=C/1C		patients with advanced solid tumours	intravenous, 1.6 mg/3 mg weekly, grade ≥3		Pneumonia AE leading to dose reduction	0%
O.O.O.O.O.O.[Cl-].[Cl-].[Co+2]		rat male, faeces	oral gavage, 10 mg/kg single, day 1, pooled samples	reference: vehicle control subtracted	cobalt in faeces	41.1 µg/g
